Published values of several laboratories.
Every numbered part comes from another study and shows a few of its results, in no order.

Series 1 — technique: protein binding microarray; form: double-stranded DNA, one strand shown; matrix: in vitro; tested at: not given; reference: not given; reading: higher = stronger binding
Target: Histone acetyltransferase KAT6A, both winged helices, GST fusion (KAT6A, Homo sapiens, UniProt Q92794, residues 1-181)
Notes: 8-mer, flanks averaged, mean of 2 arrays, mostly near background
Construct (chain): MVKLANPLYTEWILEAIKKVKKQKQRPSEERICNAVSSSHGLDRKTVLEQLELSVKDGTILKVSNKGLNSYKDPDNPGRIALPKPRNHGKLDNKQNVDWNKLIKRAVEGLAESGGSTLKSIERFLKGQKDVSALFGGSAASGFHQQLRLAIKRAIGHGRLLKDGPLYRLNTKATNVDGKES
`AGGATTCC` has an E-score of -0.182.
`AGTGAACG` has an E-score of -0.142.
The E-score of `ATCTTATA` is reported as -0.206.
The E-score of `GAAGCGGA` is reported as 0.151.
`AAGCAACT` has an E-score of -0.175.
The E-score of `CACGTCTG` is reported as 0.0322.
`CATTGCTA` gave an E-score of -0.213.
`AACAGTAA` has an E-score of -0.0144.
With `ACACGGGT` the E-score was 0.209.
For `GAAATCCC`, the E-score was 0.0406.
With `ACCTACCT` the E-score was -0.128.
The E-score of `TGAAGGAA` is reported as -0.106.
`AGGTGACT` has an E-score of -0.205.
`ACTCATCT` has an E-score of -0.278.
With `TAAGTTCA` the E-score was -0.136.
`CAAACTCG` gave an E-score of -0.0418.
`CTAATTCC` gave an E-score of -0.121.
For `AAACTCAC`, the E-score was 0.0171.
`ATCAACGA` gave an E-score of -0.0535.
For `CAAGCGCC`, the E-score was 0.305.
For `GACTAGGA`, the E-score was -0.0276.
For `CACATGAC`, the E-score was -0.114.
`AGGAAGTG` has an E-score of -0.0641.
With `CTCTGCGA` the E-score was 0.0261.
`ACAGTTTC` has an E-score of -0.126.

Series 2 — technique: RNA Bind-n-Seq; form: RNA; matrix: in vitro; tested at: not given; reference: input RNA pool; reading: higher = stronger binding
Target: RING finger protein unkempt homolog, zinc fingers 1-6, GST-SBP tag (UNK, Homo sapiens, UniProt Q9C0B0, residues 30-357)
Chain of UniProt Q9C0B0 (30-357, looked up): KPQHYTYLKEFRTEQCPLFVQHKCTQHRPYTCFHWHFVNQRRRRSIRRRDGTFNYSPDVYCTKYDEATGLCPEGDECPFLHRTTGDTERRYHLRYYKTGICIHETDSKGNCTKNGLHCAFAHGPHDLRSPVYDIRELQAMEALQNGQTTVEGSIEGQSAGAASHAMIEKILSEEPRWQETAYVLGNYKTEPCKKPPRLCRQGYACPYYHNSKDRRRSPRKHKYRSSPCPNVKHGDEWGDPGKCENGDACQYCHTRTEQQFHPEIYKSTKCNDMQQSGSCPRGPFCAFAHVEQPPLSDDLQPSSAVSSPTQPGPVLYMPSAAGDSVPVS
Notes: RNA with constant flanks, human and mouse sites, ends assumed
All sequences stand within: GGGAGUUCUACAGUCCGACGAUC … CAACAGAGGAUUGAGCAUCA
`CUCUCCACGGAAAAUUUCCAGAUCAAACAGGAUUCCUCUACCGGCUCGUACUCCAUCAAUUUCGUUCAAAAUCCAAAUAAUAACAGAUAACAAAGAUAACAAAAGCUUUACAAGCUGACU` gave a bound/input enrichment of 0.594 ratio.
`CAUUAUUACUCCAUCACUAUUAAUUACCGGAAAAAUGAACUGGAACAGAAGAUGCUGUUAAAUUUGCAUAAGAAGAGUUGGAUGGAAGGAUUGACACUUCAGGACUACAGUGAACACUGU` has a bound/input enrichment of 0.277 ratio.
The bound/input enrichment of `ACAGGUACCCACAGACUUGGCACAAAAAUUUGCUGACACACACAGUAUGCCUUUGUUUGAAACGUCUGCUAAAAACCCCAAUGAUAAUGACCAUGUGGAAGCUAUAUUUAUGACCUUGGC` is reported as 0.277 ratio.
`GAAGAUGUUGCCAUGGCCAAAAGAGAAAUCCUCUCGGCUGCAGAGCACUUUUCUAUGAUUCGUGCAUCUCGAAACAAAAAUGGUCCUGCACUAGGAGGGUUAUCGUGUAGUCCUAAUCUG` gave a bound/input enrichment of 0.163 ratio.
For `GCCUUAUUUGCCACGGAGACCUUUGCUAUGGGAAUUAACAUGCCAGCUAGAACUGUUUUAUUUACAAAUGCCCGCAAAUUUGAUGGGAAGGAUUUCCGAUGGAUUUCUUCUGGUGAAUAC`, the bound/input enrichment was 0.543 ratio.
For `UUCUCCUCCUCUUCCUCCUCCUCCUCUGGUCCUAGGAGUUUUUACCCUCGCCAGGGCGCUACUAGCAAGUACCUGAUUGGAUGGAAAAAACCCGAAGGAACCAUAAACUCCGUGGGAUUU`, the bound/input enrichment was 0.29 ratio.
With `UAUCAGUCUCUCCUUAUCAGAGGAGAGACCUUUUAUUUUUAAGAUGACUACAGACCUAUUUUUAGAUAAGUUUUCAGUACAAUUUUGAACUACAACUUUUUUAACAAAACAUCUUCCAGU` the bound/input enrichment was 0.261 ratio.
The bound/input enrichment of `ACUAAGCAGGAAGGGAUGGAAGGCCUCCUUGGGACUCUAGUGCAGCUUCUGGGUUCCGAUGAUAUAAAUGUGGUCACCUGUGCAGCUGGAAUUCUCUCUAACCUCACUUGCAAUAAUUAC` is reported as 0.226 ratio.

Series 3 — technique: RNA Bind-n-Seq; form: RNA; matrix: in vitro; tested at: 1 µM; notes: whole 134-nt RNA, ends assumed; together with: 150 mM KCl; reference: input library; reading: higher = stronger binding
Target: Ras GTPase-activating protein-binding protein 1, C-terminal RGG region (G3BP1, Homo sapiens, UniProt Q13283)
Chain of UniProt Q13283 (whole entry, looked up): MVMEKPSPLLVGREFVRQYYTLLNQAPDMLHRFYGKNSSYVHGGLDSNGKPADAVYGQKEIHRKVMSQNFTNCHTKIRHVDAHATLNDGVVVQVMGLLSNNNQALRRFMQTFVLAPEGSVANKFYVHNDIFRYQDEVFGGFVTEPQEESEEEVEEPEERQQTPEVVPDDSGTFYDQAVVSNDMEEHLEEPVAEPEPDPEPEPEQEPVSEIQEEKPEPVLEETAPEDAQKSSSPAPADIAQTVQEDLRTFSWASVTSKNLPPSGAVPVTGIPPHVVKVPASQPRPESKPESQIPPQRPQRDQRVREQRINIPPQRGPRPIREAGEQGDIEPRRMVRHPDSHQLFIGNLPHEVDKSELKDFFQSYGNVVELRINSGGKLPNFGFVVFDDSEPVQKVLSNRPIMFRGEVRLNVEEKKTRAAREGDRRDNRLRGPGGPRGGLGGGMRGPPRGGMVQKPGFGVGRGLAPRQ
All sequences stand within: GGGAGUUCUACAGUCCGACGAUC … UGGAAUUCUCGGGUGUCAAGG
`CACAGACAACACGCACCCACACAGACACAGAGGGAAGGGGUUGGGAUGGGGACAGGGUGCACAGCAGGACGGGGUAGGACCCCAGCCCCU` gave a log2 enrichment of -1.24.
For `AAGUCCUGUGCUACACAUCGUAUGUACCGAAUCGGCCCCGGGCCCCGGGCCCCGGGAAAGUAUUAUGUUACGCCGUUCGGAUCUGCACUU`, the log2 enrichment was -2.02.
With `ACCAUGCAGGUGGGCAUCUUUGGGAAGUGCGGCAAGGGGGGGAUAGGGAGGGGGGUAACACUUUGGGAACAGGUGGUCCCAGGUCGUUUC` the log2 enrichment was -0.923.
With `UGGCCCUGGUGGCAUGCGGGGAGGAAGAGGUGGCCUCAUGGAUCGUGGUGGUCCCGGUGGAACGUUCAGAGGUGGCCGUGGUGGAGACAG` the log2 enrichment was 1.65.
`AGUCCUGUGCUACACAUCGUAUGUACCGAAUCGGGUUUGGGUUUUUGGGAAAAAGGGAAAGUAUUAUGUUACGCCGUUCGGAUCUGCACU` has a log2 enrichment of 0.666.
`GUCCUGUGCUACACAUCGUAUGUACCGAAUCGGAAAAAGGGAAAAAGGGGAAAAAGGGAAAGUAUUAUGUUACGCCGUUCGGAUCUGCAC` has a log2 enrichment of -0.885.
The log2 enrichment of `GUCCUGUGCUACACAUCGUAUGUACCGAAUCGGGGAAAAAAAGGGGAAAGGGGAGGGGAAAGUAUUAUGUUACGCCGUUCGGAUCUGCAC` is reported as 2.34.
The log2 enrichment of `AGUCCUGUGCUACACAUCGUAUGUACCGAAUCAAAUUUAAAUUUUUAAACCCCCAAAAAAGUAUUAUGUUACGCCGUUCGGAUCUGCACU` is reported as -1.15.
`CCUGUGCUACACAUCGUAUGUACCGAAUCGGGGAAAAAAAGGGGUUUUUUUGGGGUGGGGAAAGUAUUAUGUUACGCCGUUCGGAUCUGC` has a log2 enrichment of 0.473.

Series 4 — technique: protein-binding microarray; form: double-stranded DNA, one strand shown; matrix: in vitro; tested at: not given; reading: higher = stronger binding
Target: Myc proto-oncogene protein, bHLH-zipper, MAX partner unstated (MYC, Homo sapiens, UniProt P01106, residues 368-449)
Chain of UniProt P01106 (368-449, looked up): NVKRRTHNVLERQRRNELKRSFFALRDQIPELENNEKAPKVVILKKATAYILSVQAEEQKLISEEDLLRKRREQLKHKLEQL
Notes: k-mer, scored over probes, only values ≥0.25
The E-score of `CTCGTGCA` is reported as 0.367.
With `ATGCACGG` the E-score was 0.293.
The E-score of `ACGAGGTC` is reported as 0.326.
`CACCATGG` gave an E-score of 0.329.
`CGACATGC` gave an E-score of 0.367.
With `ACGTGCCG` the E-score was 0.429.
With `ATGGGGGC` the E-score was 0.265.
`CATGTCAC` gave an E-score of 0.368.
The E-score of `CTCATGAC` is reported as 0.281.
With `CTCGTGTC` the E-score was 0.408.
`ACTCATGG` has an E-score of 0.312.
`ACGCACAT` gave an E-score of 0.379.
`CGCCCACC` has an E-score of 0.29.
For `ACGGTGTG`, the E-score was 0.291.
With `ACATGTCC` the E-score was 0.355.
`GCATGTAA` gave an E-score of 0.318.
With `CATGTCCG` the E-score was 0.288.
`GCCACGCA` gave an E-score of 0.431.
The E-score of `CCCCACCA` is reported as 0.286.
`ATCATGTG` has an E-score of 0.387.
For `AGCATGCT`, the E-score was 0.45.
`CGTGCCCA` has an E-score of 0.306.
`AATGTGTG` gave an E-score of 0.324.
`CGCACGAG` gave an E-score of 0.444.
With `CCATGCCG` the E-score was 0.429.

Some of these lines once more (series 3):
With `ACCAUGCAGGUGGGCAUCUUUGGGAAGUGCGGCAAGGGGGGGAUAGGGAGGGGGGUAACACUUUGGGAACAGGUGGUCCCAGGUCGUUUC` the log2 enrichment was -0.923.
With `UGGCCCUGGUGGCAUGCGGGGAGGAAGAGGUGGCCUCAUGGAUCGUGGUGGUCCCGGUGGAACGUUCAGAGGUGGCCGUGGUGGAGACAG` the log2 enrichment was 1.65.
`AGUCCUGUGCUACACAUCGUAUGUACCGAAUCGGGUUUGGGUUUUUGGGAAAAAGGGAAAGUAUUAUGUUACGCCGUUCGGAUCUGCACU` has a log2 enrichment of 0.666.
`GUCCUGUGCUACACAUCGUAUGUACCGAAUCGGAAAAAGGGAAAAAGGGGAAAAAGGGAAAGUAUUAUGUUACGCCGUUCGGAUCUGCAC` has a log2 enrichment of -0.885.
The log2 enrichment of `GUCCUGUGCUACACAUCGUAUGUACCGAAUCGGGGAAAAAAAGGGGAAAGGGGAGGGGAAAGUAUUAUGUUACGCCGUUCGGAUCUGCAC` is reported as 2.34.
The log2 enrichment of `AGUCCUGUGCUACACAUCGUAUGUACCGAAUCAAAUUUAAAUUUUUAAACCCCCAAAAAAGUAUUAUGUUACGCCGUUCGGAUCUGCACU` is reported as -1.15.
